Published values pooled from the literature.
Protocols differ between the studies behind these lines. Positions count from the first letter of the parent shown. ± gives the spread as reported.
B1: enzyme E188A (Streptomyces parvus, UniProt A0A7K3RVR3); chain MYVPEQYRPRDASWTLELIRSNPLALLVTNGPQHPWATHVPVLFAEEPDGPEGPDGLDATGDDLVGRRLLGHLNLMNPHWEALAGAGHALLVFQGPGSYVSPTVYETAPAAPTWDFTSVHVHGALRLIDDPDDLRKIVQATVRAYEREVGTDWDMSESLEYFERLLPGVRGFEIKIESVDSMFKLSQAQLPETVTKVIDSFRRSDGGRRQELATMIERAASD
B2: enzyme N77A (Streptomyces parvus, UniProt A0A7K3RVR3); chain MYVPEQYRPRDASWTLELIRSNPLALLVTNGPQHPWATHVPVLFAEEPDGPEGPDGLDATGDDLVGRRLLGHLNLMAPHWEALAGAGHALLVFQGPGSYVSPTVYETAPAAPTWDFTSVHVHGALRLIDDPDDLRKIVQATVRAYEREVGTDWDMSESLEYFERLLPGVRGFEIKIESVDSMFKLSQEQLPETVTKVIDSFRRSDGGRRQELATMIERAASD
P1: yEGFP-Tem1 (Saccharomyces cerevisiae); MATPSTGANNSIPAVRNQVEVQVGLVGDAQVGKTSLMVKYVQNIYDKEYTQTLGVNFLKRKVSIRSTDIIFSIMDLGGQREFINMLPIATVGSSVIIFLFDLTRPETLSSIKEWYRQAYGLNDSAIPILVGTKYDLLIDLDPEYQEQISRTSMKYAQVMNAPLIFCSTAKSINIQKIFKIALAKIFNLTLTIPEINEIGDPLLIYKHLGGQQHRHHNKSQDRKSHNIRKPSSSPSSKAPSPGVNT; partner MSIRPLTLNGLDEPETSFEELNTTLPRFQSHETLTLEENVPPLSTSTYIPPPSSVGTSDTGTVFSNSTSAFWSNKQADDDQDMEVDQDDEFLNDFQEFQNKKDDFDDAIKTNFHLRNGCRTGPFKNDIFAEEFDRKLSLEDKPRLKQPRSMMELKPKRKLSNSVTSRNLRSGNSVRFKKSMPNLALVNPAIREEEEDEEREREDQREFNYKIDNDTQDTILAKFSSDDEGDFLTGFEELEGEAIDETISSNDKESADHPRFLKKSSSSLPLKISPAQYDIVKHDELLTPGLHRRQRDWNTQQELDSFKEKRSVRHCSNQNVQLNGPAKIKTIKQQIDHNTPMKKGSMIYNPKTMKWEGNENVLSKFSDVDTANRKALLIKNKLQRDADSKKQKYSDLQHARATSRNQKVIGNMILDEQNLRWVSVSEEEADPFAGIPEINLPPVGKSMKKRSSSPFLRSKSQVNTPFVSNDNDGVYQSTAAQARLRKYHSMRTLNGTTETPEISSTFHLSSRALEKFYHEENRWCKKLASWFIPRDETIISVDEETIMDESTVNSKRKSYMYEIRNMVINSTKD

Substance = CC(=O)N[C@@H](CC(C)C)C(=O)N[C@H](C(=O)N[C@@H](Cc1ccccc1)C(=O)N[C@]1(C)CCCCCC/C=C/CCC[C@@](C)(C(=O)N[C@@H](C)C(=O)N[C@@H](C)C(=O)N[C@@H](C)C(=O)N[C@@H](C)C(=O)N[C@@H](C)C(=O)N[C@H](C)C(N)=O)NC(=O)[C@H](CC(C)C)NC(=O)[C@H](CCCCNC(=O)CCNC(=O)C[C@@H]2N=C(c3ccc(Cl)cc3)c3c(sc(C)c3C)-n3c(C)nnc32)NC(=O)[C@H](C)NC(=O)[C@H](Cc2c[nH]c3ccccc23)NC(=O)[C@H](Cc2ccc(O)cc2)NC(=O)[C@H](C)NC1=O)[C@@H](C)O; assay = equilibrium dialysis; test system = mouse plasma; setting = 2 µM, 6 h; measurement = plasma chamber concentration; value = 920 nM
Substance = AAUUUUUUAGGGAAGAUCUGGCCUUCCUACAAGGGAAGGCCAGGGAAUUUUCUUC (ssRNA (HIV-1); stem-loop); tested on = SHFL 1-291 T250A (Homo sapiens, UniProt Q9NUL5); assay = BLI; test system = folded RNA; scale = relative to: WT, lower = weaker affinity; measurement = relative binding; value = > 4 fold
Substance = CC[C@H](C)[C@@H]([C@@H](CC(=O)N1CCC[C@H]1[C@H](OC)[C@@H](C)C(=O)N[C@H](C)[C@@H](O)c1ccccc1)OC)N(C)C(=O)[C@@H](NC(=O)[C@H](C(C)C)N(C)C(=O)OCc1ccc(NC(=O)[C@H](CCCNC(N)=O)NC(=O)[C@@H](NC(=O)CCCCCN2C(=O)CC(SC[C@H](NC(=O)[C@H](CC(=O)O)NC(=O)[C@H](Cc3ccc(O)cc3)NC(=O)[C@H](Cc3c[nH]c4ccccc34)NC(=O)[C@@H](N)CCCNC(=N)N)C(=O)O)C2=O)C(C)C)cc1)C(C)C (stereo partly drawn); test system = PBS; measurement = half-life; value = 105 ± 5.4 min
Substance = N=C(N)NCCC[C@@H]1NC(=O)[C@H](CCCCNC(=O)CCC(NC(=S)Nc2ccc(CC3CN(CC(=O)O)CCN(CC(=O)O)CCN(CC(=O)O)CCN3CC(=O)O)cc2)C(=O)NCCCC[C@@H]2NC(=O)[C@@H](Cc3ccc(O)cc3)NC(=O)[C@H](CC(=O)O)NC(=O)CNC(=O)[C@H](CCCNC(=N)N)NC2=O)NC(=O)[C@@H](Cc2ccc(O)cc2)NC(=O)[C@H](CC(=O)O)NC(=O)CNC1=O (stereo partly drawn) [scandium-44 labelled]; assay = ex vivo γ-counting; test system = female athymic nude mice, U-87 MG xenograft, brain; setting = intravenous, 4 h; measurement = tissue uptake; value = 0.03 ± 0.01 %ID/g
Substance = B1 (enzyme E188A); tested on = N[C@@H](CCCNO)C(=O)O; assay = steady-state kinetics; setting = pH 8, 25 °C, with: heme; measurement = kcat; value = 0.125 s⁻¹
Substance = CCCC[C@H](NC(=O)CN1CCC(NC(=O)CN2CCN(CC(N)=O)CCN(CC(N)=O)CCN(CC(N)=O)CC2)CC1)C(=O)N[C@H]1CC(=O)NCCCC[C@@H](C(N)=O)NC(=O)[C@H](Cc2c[nH]c3ccccc23)NC(=O)[C@H](CCCNC(=N)N)NC(=O)[C@@H](Cc2ccccc2)NC(=O)[C@H](Cc2c[nH]cn2)NC1=O [lead-212 labelled]; test system = male C57BL/6J mice, B16-F10 tumour, blood; setting = intravenous, 20 pmol, 2 h, ex vivo; measurement = tissue uptake; value = < 1 %IA/g
Substance = ORF34 W160A (Kaposi's sarcoma-associated herpesvirus); tested on = ORF66; assay = pull-down; test system = 293T; scale = relative to: wild-type ORF34, higher = more prey pulled down; measurement = relative binding; value = 0.29
Substance = B2 (enzyme N77A); tested on = N[C@@H](CCCNO)C(=O)O; assay = steady-state kinetics; setting = pH 8, 25 °C, with: heme; measurement = kcat; value = 0.392 s⁻¹
Substance = P1 T34A; tested on = BFA1 (Saccharomyces cerevisiae); assay = co-IP; test system = yeast; setting = in cells; scale = relative to: wild-type protein, higher = more binding; measurement = relative binding; value = 0.01
Substance = CC[C@H](C)[C@H](NC(=O)[C@H](CCC(N)=O)NC(=O)[C@H](Cc1c[nH]cn1)NC(=O)[C@@H](NC(=O)[C@H](Cc1c[nH]c2ccccc12)NC(=O)[C@H](CO)NC(=O)[C@H](CCC(N)=O)NC(=O)[C@@H]1CCCN1C(=O)[C@H](Cc1c[nH]cn1)NC(=O)[C@@H](NC(=O)[C@H](CCCNC(=N)N)NC(=O)[C@H](CC(C)C)NC(=O)[C@H](Cc1ccc(O)cc1)NC(=O)[C@H](CCCNC(=N)N)NC(=O)[C@@H](NC(=O)[C@H]1CC[C@H](CN)CC1)[C@@H](C)O)[C@@H](C)CC)C(C)C)C(=O)O; tested on = HUVEC; assay = MTT; setting = 1.0 mg/ml, 24 h, 37 °C; measurement = viability; value = 5 to 10%
Substance = ORF34 G182A (Kaposi's sarcoma-associated herpesvirus); tested on = ORF66; assay = pull-down; test system = 293T; scale = relative to: wild-type ORF34, higher = more prey pulled down; measurement = relative binding; value = 0.36
Substance = CC[C@H](C)[C@H](NC(=O)[C@H](CO)NC(=O)[C@H](Cc1ccc(O)cc1)NC(=O)[C@H](Cc1ccc(O)cc1)NC(=O)[C@H](CC(N)=O)NC(=O)CNC(=O)[C@H](CO)NC(=O)[C@H](Cc1ccc(O)cc1)NC(=O)[C@H](CO)NC(=O)[C@H](CO)NC(=O)[C@H](CC(N)=O)NC(=O)COCCOCCNC(=O)CN1CCN(CC(=O)O)CCN(CC(=O)O)CCN(CC(=O)O)CC1)C(=O)N[C@@H](CC(C)C)C(N)=O [copper-64 labelled]; assay = dynamic PET; test system = tamoxifen-induced PDAC mouse model, metastases; setting = 3.5 min, CLDN4-expressing tumours; measurement = maximum metastasis uptake; value = 27.9 %IA/cc
